Published values of several laboratories.
Protocols differ between the studies behind these lines. Values joined by “and” are separate records of one study, mostly repeats; a detail may differ. Numbers after ± are the reported error.
O-methyltransferase: O-methyltransferase (Sorghum bicolor, UniProt A0A1B6PFV1)
T1: ssDNA, aptamer; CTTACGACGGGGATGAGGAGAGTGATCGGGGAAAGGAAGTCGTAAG
T2: RNA A16C/A37U, hybrid riboswitch; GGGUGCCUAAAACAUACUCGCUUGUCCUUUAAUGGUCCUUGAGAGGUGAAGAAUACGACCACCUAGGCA
T3: ssDNA, aptamer; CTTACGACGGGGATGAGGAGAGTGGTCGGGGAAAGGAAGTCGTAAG

SMILES | target | assay | system | setting | how to read | measurement | result
NC/C(=C\F)COc1cccc(Cn2c(=S)[nH]c(=O)c3[nH]cnc32)c1 | Myeloperoxidase (MPO, Homo sapiens, UniProt P05164) | H2O2 consumption, inhibitor, H2O2 electrode |  | 0.25 µM, 0.1 s |  | H2O2 concentration | -0.997 µM
NCCS(=O)(=O)O | SLC6A6 (Homo sapiens, UniProt P31641, S402A) | binding, microscale thermophoresis |  | 3.91 µM, room temperature, with: 50 nM labelled protein | higher = more binding | normalised MST signal | 0.00923
CN(C)C(=O)C(CCN1CCC(O)(c2ccc(Cl)cc2)CC1)(c1ccccc1)c1ccccc1 | Calcium-activated potassium channel subunit alpha-1, with LRRC26 γ1 subunit (KCNMA1, Homo sapiens, UniProt Q12791) | ion current, inside-out patch, fit of G-V curve | BKα/γ1 channel | 0.1 µM, with: nominally 0 Ca2+ |  | V1/2 | 20.3 mV
COCCOCc1ccc(-c2cc3onc(-c4ccccc4)c3c(=O)n2C)cc1 | Nuclear receptor subfamily 4 group A member 1 (NR4A1, Homo sapiens, UniProt P22736) | reporter gene, Gal4 hybrid reporter |  | 3 µM | relative to: vehicle | activation | 1.26 fold
Cc1cccc(N2CC(C(=O)O)CC2=O)c1 (stereo not shown) | FBXW7 (Homo sapiens, UniProt Q969H0) | binding, affinity selection mass spectrometry |  |  | relative to: other proteins in batch | fold enrichment | 0.961
O=C(COP(=O)(O)O)[C@@H](O)[C@H](O)[C@H](O)COP(=O)(O)O | Phosphoglycerate mutase 1 (Homo sapiens, UniProt P18669) |  |  | 0.1562 mM, unit not given | relative to: activity at 10 mM set to 100 | enzyme activity | 46.2 and 51.9 and 43.8
O=C(CN1CCO[C@@H](COc2ccccn2)C1)N1CCc2ccccc21 | DRD4 (Homo sapiens, UniProt P21917) | radioligand binding |  | concentration not given, with: [3H]N-methylspiperone |  | inhibition | 0.4%
O=C(O)c1ccccc1Nc1cccc(C(F)(F)F)c1 | TAS2R14 (Homo sapiens, UniProt Q9NYV8) | G-protein dissociation, TRUPATH gustducin BRET |  | 100 nM, wild-type receptor, unit not given | relative to: vehicle | ΔBRET | 0.00116 and 0.0103 and 0.0376 and 0.00716 and 0.0263 and 0.00575 and 0.0225
CCn1c(-c2nc3cc(C(=O)N4CCC[C@@H](N)C4)cc(OC)c3n2C)cc2cccnc21 | PADI1 (Homo sapiens, UniProt Q9ULC6) | enzyme activity, cell lysate | HEK293 expressing PADI1 | 100 µM, with: calcium 2 mM |  | citrullination | no effect
CC(=C/C(=O)O)/C=C/C=C(\C)C1C=C2C(C)(C)CCCC2(C)O1 (stereo not shown) | Rhodopsin (RHO, Homo sapiens, UniProt P08100, P23H) | ER retention, immunostaining co-localization, measured: opsin with calnexin | COS-7 transfected P23H | 0.10 µM |  | Pearson correlation coefficient | 0.76
COc1cc(CNC(=O)CCCC/C=C/C(C)C)ccc1O | TRPV1 (Homo sapiens, UniProt Q8NER1) | channel activation, FLIPR calcium | HEK293T | 60 µM | higher = more activation | calcium response | 29.3 a.u. and 28.1 a.u. and 28.8 a.u.
Nc1ncnc2c1ncn2[C@@H]1O[C@H](CO)[C@@H](O)[C@H]1O | T1, ssDNA, aptamer | ITC |  |  |  | Kd | 48.8 µM
Nc1ncnc2c1ncn2[C@@H]1O[C@H](COP(=O)(O)OP(=O)(O)O)[C@@H](O)[C@H]1O | GUK1 (Homo sapiens, UniProt Q16774) | binding, isothermal titration calorimetry |  | molar ratio 1.741, fitted curve |  | ΔH | -0.526 kcal/mol
O=C(O)c1cncc(-c2ccc3[nH]ccc3c2)c1 | Tumor necrosis factor receptor superfamily member 1A, extracellular domain (Homo sapiens, UniProt P19438) | binding, SPR |  |  |  | ligand efficiency | 0.29
CCCC[C@@H]1NC(=O)[C@H](Cc2ccc(O)cc2)NC(=O)[C@@H]2CCCN2C(=O)[C@H](CC(=O)O)NC(=O)[C@H](C)NC(=O)[C@H](Cc2ccccc2)NC(=O)[C@@H]2CSCCC(=O)N3CN(CN(C3)C(=O)CCSC[C@@H](C(=O)N[C@@H](C)C(N)=O)NC1=O)C(=O)CCSC[C@H](NC(=O)[C@H](C)NC(C)=O)C(=O)N[C@@H]([C@@H](C)CC)C(=O)N[C@@H](CCC(=O)O)C(=O)N[C@@H](CCC(=O)O)C(=O)N[C@H](CCCCNC(=O)CCc1cn(CCOCCOCCOCCOCCOCCC(=O)N[C@H]3CSCCC(=O)N4CN5CN(C4)C(=O)CCSC[C@H](NC(=O)[C@@H](CC(=O)O)NC(=O)[C@H](Cc4cccc6ccccc46)NC(=O)[C@@H]4CCCN4C3=O)C(=O)N[C@@H](CCSC)C(=O)N[C@@H](CCCCNC(=N)N)C(=O)N[C@@H](CC(=O)O)C(=O)N[C@@H](Cc3c[nH]c4ccccc34)C(=O)N[C@@H](CO)C(=O)N[C@@H]([C@@H](C)O)C(=O)N3CCC[C@H]3C(=O)N3C[C@H](O)C[C@H]3C(=O)N[C@@H](Cc3c[nH]c4ccccc34)C(=O)N[C@H](C(N)=O)CSCCC5=O)nn1)C(=O)N[C@@H](CCC(N)=O)C(=O)N[C@@H](Cc1ccc(O)cc1)C(=O)N2 | Tumor necrosis factor receptor superfamily member 9/Nectin-4 (Homo sapiens, UniProt Q07011+Q96NY8) | reporter gene, agonist | HT-1376 coculture with reporter cells |  | relative to: background | Emax | 28 fold
NC[C@@H]1O[C@H](O[C@H]2[C@@H](O)[C@H](O[C@@H]3[C@@H](O)[C@H](N)C[C@H](N)[C@H]3O[C@H]3O[C@H](CN)[C@@H](O)[C@H](O)[C@H]3N)O[C@@H]2CO)[C@H](N)[C@@H](O)[C@@H]1O | T2, RNA A16C/A37U, hybrid riboswitch | in-line probing |  | 72 h, Mg2+ 10 mM, K+ 100 mM |  | binding | binds
NS(=O)(=O)c1ccc(Nc2nc(-c3ccc(F)cc3)c3ccccc3n2)cc1 | Protein polybromo-1, bromodomain 5 (PBRM1, Homo sapiens, UniProt Q86U86) | bromodomain binding, BROMOscan |  | 1000 nM | relative to: DMSO control | remaining binding | 75%

SMILES | target | assay | system | setting | how to read | measurement | result
Nc1ncnc2c1ncn2[C@@H]1O[C@H](COP(=O)(O)OP(=O)(O)O)[C@@H](O)[C@H]1O | T3, ssDNA, aptamer | ITC |  |  |  | Kd | 21.6 µM
Cc1nc(CSc2nc(SCc3ccc(C(C)C)cc3)nc(=O)[nH]2)cs1 | TOP2A (Homo sapiens, UniProt P11388) | DNA cleavage |  | 31.25 µM |  | mean linear DNA | 0%
COc1cc(/C=C/c2ccc(O)cc2)cc(OC)c1 | O-methyltransferase |  |  | with: saturating SAM |  | cooperativity factor | 0.45
CCN1CCC[C@H]1CNC(=O)c1c(O)c(Cl)cc(Cl)c1OC | Probable G-protein coupled receptor 27 (Homo sapiens, UniProt Q9NS67) | β-arrestin recruitment, TANGO luminescence, measured: GPR27 |  | concentration not given | relative to: basal luminescence | log2 fold change | -0.203
C[C@H]1O[C@@H](O[C@H]2CC[C@@]3(C)[C@@H](CC[C@]4(C)[C@@H]3C=C[C@]35OC[C@@]6(CCC(C)(C)C[C@H]63)[C@@H](O)C[C@]54C)[C@]2(C)CO)[C@H](O)[C@@H](O[C@@H]2O[C@H](CO)[C@@H](O)[C@H](O)[C@H]2O)[C@H]1O | SIRT1 (Homo sapiens, UniProt Q96EB6) | binding, microscale thermophoresis |  | 140 nM |  | MST normalised fluorescence | 885 a.u.
COc1c(O)cc(O)c2c(=O)cc(-c3ccccc3)oc12 | COMT (Homo sapiens, UniProt P21964) | UV |  |  | relative to: native over denatured target | binding index | 7.84
Nc1nc2c(ncn2[C@@H]2O[C@@H]3COP(=O)(O)O[C@H]4[C@@H](O)[C@H](n5cnc6c(=O)[nH]c(N)nc65)O[C@@H]4COP(=O)(O)O[C@H]3[C@H]2O)c(=O)[nH]1 | Cell cycle histidine kinase CckA, CA domain (Caulobacter vibrioides, UniProt Q9X688) | ITC |  | 12 °C, with: AMPPNP 5 mM |  | -TΔS | -8 kcal/mol
CCNc1ccc([N+](=O)[O-])cc1-n1cnc(-c2ccc([N+](=O)[O-])cc2)c1 | Toll-like receptor 1/2 (Homo sapiens, UniProt O60603+Q15399) | reporter gene, agonist | HEK-Blue hTLR2 | concentration not given |  | maximal activation | ≥ 50%
c1coc(-c2n[nH]cc2-c2ccnc3ccccc23)c1 | Mitogen-activated protein kinase HOG1 (HOG1, Candida albicans, UniProt Q92207) | kinase binding, MIB/MS competition | Candida albicans lysate | 1 µM | relative to: DMSO, negative = stronger binding | log2 fold change | -0.25
N[C@H](CC(=O)O)C(=O)O | Methyl-accepting chemotaxis protein, ligand-binding domain (Pectobacterium atrosepticum, UniProt Q6D6I9) | binding, thermal shift |  | ligand-binding domain |  | ΔTm | binds
COc1ccc(Cc2nnc(NS(=O)(=O)c3ccc(Cl)cc3)s2)cc1 | Glutathione hydrolase 1 proenzyme, without transmembrane domain (Homo sapiens, UniProt P19440) | GSH hydrolysis |  | 37 °C, no inhibition up to 250 µM, with: GSH 5-20 µM |  | Kii | > 250 µM
CC(=O)N[C@H](C(=O)N1C[C@H](O)C[C@H]1C(=O)NCc1ccc(-c2scnc2C)cc1)C(C)(C)SCCCCCCNC(=O)C[C@@H]1N=C(c2ccc(Cl)cc2)c2c(sc(C)c2C)-n2c(C)nnc21 | VHL/BRD3, BD2; with Elongin B/C (Homo sapiens, UniProt P40337+Q15059) | ternary complex binding, ITC |  | 25 °C, with: VHL-ElonginB-ElonginC titrated into compound:PROTAC:Brd3^BD2 complex |  | ΔG | -9.7 ± 0.2 kcal/mol
C#CCCOC(=O)[C@]1(C)C=C(C(=O)OC(C)(C)C)C(=O)CC1 | MAPK8 (Homo sapiens, UniProt P45983) | D-peptide binding, inhibitor, FP peptide displacement |  | 0.7812 µM | lower is stronger displacement | fraction bound | 0.779
CC(=O)N[C@H](C(=O)N[C@@H](CC(N)=O)C(=O)N[C@@H](CCCCN)C(=O)N1CCC[C@H]1C(=O)N[C@@H](CC(C)C)C(=O)N1CCC[C@H]1C(=O)N1CCC[C@H]1C(=O)N[C@@H](CC(C)C)C(=O)N1CCC[C@H]1C(=O)N[C@H](C(=O)N[C@@H](C)C(N)=O)C(C)C)C(C)C | High osmolarity signaling protein SHO1, SH3 domain (SHO1, Saccharomyces cerevisiae, UniProt P40073) | binding, isothermal titration calorimetry | 50 mM sodium phosphate, 100 mM NaCl | concentration not given, pH 7.0, 25 °C |  | enthalpy change | -6.74 ± 0.0478 kcal/mol
Oc1ccc(/C=C/c2cc(O)cc(O)c2)cc1 | O-methyltransferase | ITC |  | concentration not given, with: SAH+ |  | binding stoichiometry | 0.73 ± 0.004
O=C(Nc1cccc2c(=O)cc(-c3nnn[nH]3)oc12)c1ccc(OCCCCc2ccccc2)cc1 | Volume-regulated anion channel subunit LRRC8C, part LRRC8A IL1 chimera (LRRC8C, Homo sapiens, UniProt Q8TDW0, L136K) | ion current, inhibitor, whole-cell patch clamp | HCT LRRC8-/- cells | 0.3 µM, -100 mV |  | inhibition | 49.6% and 25.5% and 42.9% and 30.9% and 26.7%
Nc1ncnc2c1ncn2[C@@H]1O[C@H](COP(=O)(O)OP(=O)(O)OP(=O)(O)O)[C@@H](O)[C@H]1O | P2X purinoceptor 2 (P2RX2, Homo sapiens, UniProt Q9UBL9, D148K/E146K/L150K/M149R) | ion current, agonist, two-electrode voltage clamp | Xenopus oocytes | concentration not given |  | peak current | 3880 nA
